# Assay results collected from several papers.
# Protocols differ between the studies behind these lines. Numbers after ± are the reported error.
SMILES,test,system,conditions,AUC(0-inf)
C=CC(=O)N1CCC([C@@H]2CCNc3c(C(N)=O)c(-c4ccc(Oc5ccccc5)cc4)nn32)CC1,,human,"oral, 480 mg single dose, mean",2670 ng·h/mL
NS(=O)(=O)OC[C@@H]1C[C@@H](n2ccc3c(N[C@H]4CCc5ccccc54)ncnc32)C[C@@H]1O,,human,"intravenous, 15 mg/m^2 single dose, day 8, together with: itraconazole",1060 ng·h/mL
Cc1ccc(NC(=O)c2ccc(CN3CCN(C)CC3)cc2)cc1Nc1nccc(-c2cncc(-c3oncc3C)c2)n1,,"older healthy human adults, plasma","oral, 325 mg single dose, fed, mean",244000 ng·h/mL
COc1cc(Nc2ncc3c(n2)-c2ccc(Cl)cc2C(c2c(F)cccc2OC)=NC3)ccc1C(=O)O,,"human, plasma","oral, 50 mg single, fed",24.9 µM·h
CC(C)(/C=C(\C#N)C(=O)N1CCC[C@@H](n2nc(-c3ccc(Oc4ccccc4)cc3F)c3c(N)ncnc32)C1)N1CCN(C2COC2)CC1,,"human, plasma","oral, 100 mg single dose, mean",66 ng·h/mL
CCOc1cc([C@@H](CS(C)(=O)=O)N2C(=O)c3cccc(NC(C)=O)c3C2=O)ccc1OC,,"healthy human, both sexes, plasma","oral, 30 mg single dose, without rifampicin",3120 ng·h/mL
C#C[C@]1(O)CC[C@H]2[C@@H]3CCc4cc(O)ccc4[C@H]3CC[C@@]21C,,"human female, plasma","oral, 35 µg, day 1, together with: norethindrone 1 mg",1.1 ng·h/mL
CN[C@@H]1COc2c(S(=O)(=O)NC(=O)Nc3c4c(cc5c3CCC5)CCC4)cnn2C1,,human,"oral, 600 mg, high-fat meal, mean",150000 ng·h/mL
COC(=O)c1ccc2c(c1)NC(=O)/C2=C(\Nc1ccc(N(C)C(=O)CN2CCN(C)CC2)cc1)c1ccccc1,,"healthy human controls matched to Child-Pugh B, plasma","oral, 100 mg single dose, fed, adjusted geometric mean",77.8 ng·h/mL
CN(C)Cc1c(C(=O)NCCOc2ccc(C(=O)NO)cc2)oc2ccccc12,,"human, plasma","oral, 40 mg single dose",171 ± 12.7 ng·h/mL
CC(=O)O[C@H]1C(=O)[C@@]2(C)[C@H]([C@H](OC(=O)c3ccccc3)[C@]3(O)C[C@H](OC(=O)[C@H](O)[C@@H](NC(=O)c4ccccc4)c4ccccc4)C(C)=C1C3(C)C)[C@]1(OC(C)=O)CO[C@@H]1C[C@@H]2O,,"human patients on any protease inhibitor, plasma","iv, 100 mg/m^2 over 3 h, cycle 1",5.5 ± 2.2 µM·h
CN[C@H]1CN(c2ccc3c(=O)c(C(=O)O)cn(-c4nccs4)c3n2)C[C@@H]1OC,,"human patients, plasma","intravenous, 9 to 50 mg/m^2 twice weekly, day 4, cycle 1, mean, noncompartmental",17100 ng·h/mL
CC(=O)O[C@H]1C(=O)[C@@]2(C)[C@H]([C@H](OC(=O)c3ccccc3)[C@]3(O)C[C@H](OC(=O)[C@H](O)[C@@H](NC(=O)c4ccccc4)c4ccccc4)C(C)=C1C3(C)C)[C@]1(OC(C)=O)CO[C@@H]1C[C@@H]2O,non-compartmental,"human patients, plasma","intravenous, 200 mg/m^2, together with: lenvatinib 6 mg twice daily",22100 ± 5260 ng·h/mL
CN(Cc1cnc2nc(N)nc(N)c2n1)c1ccc(C(=O)N[C@@H](CCC(=O)O)C(=O)O)cc1,,"human, plasma","oral, 12.5 mg, day 1, alone",2360 ng·h/mL
C=CC(=O)N1CCC(CNc2ncnc(N)c2-c2ccc(Oc3ccccc3)cc2)CC1,,"human, plasma","50 mg, single dose, geometric mean",326 ng·h/mL
CCCS(=O)(=O)N[C@H]1C[C@@H](N(C)c2ncnc3[nH]ccc23)C1,,"humans, mild hepatic impairment","oral, 200 mg single",7450 ng·h/mL
Cc1ccc(NC(=O)c2ccc(CN3CCN(C)CC3)cc2)cc1Nc1nccc(-c2cccnc2)n1,,"human patients, plasma","oral, 400 mg/day, day 14 of cycle 1, together with: IL-2 6 MIU/day days 10-14",94600 ng·h/mL
COc1cc2ncnc(Nc3ccc(F)c(Cl)c3)c2cc1OCCCN1CCOCC1,,"human, plasma","oral, 250 mg, together with: vorinostat 400 mg",9.54 ± 8.06 ng·h/mL
CCCC[C@H](NC(C)=O)C(=O)N[C@H]1CCC(=O)NC[C@@H](C(=O)N[C@@H](Cc2c[nH]c3ccccc23)C(N)=O)NC(=O)[C@H](CCCNC(=N)N)NC(=O)[C@@H](Cc2ccccc2)NC(=O)[C@H](Cc2c[nH]cn2)NC1=O,,"healthy human volunteers, plasma","subcutaneous, 1.0 mg once daily, day 7",57.2 ng·h/mL
Cc1nc2c(F)cc(-c3nc(Nc4ccc(CN5CCNCC5)cn4)ncc3F)cc2n1C(C)C,,human patients,"oral, 150 mg single, geometric mean",1290 ng·h/mL
COc1cc2ncnc(Nc3ccc(F)c(Cl)c3)c2cc1NC(=O)/C=C/CN1CCCCC1,,"human, normal hepatic function (Child-Pugh), plasma","single dose, geometric mean, total drug",805 ng·h/mL
CC[C@H](C)[C@H](NC(=O)[C@H](Cc1ccccc1)NC(=O)[C@H](CCC(=O)O)NC(=O)[C@H](CCCCNC(=O)COCCOCCNC(=O)COCCOCCNC(=O)CC[C@H](NC(=O)CCCCCCCCCCCCCCCCC(=O)O)C(=O)O)NC(=O)[C@H](C)NC(=O)[C@H](C)NC(=O)[C@H](CCC(N)=O)NC(=O)CNC(=O)[C@H](CCC(=O)O)NC(=O)[C@H](CC(C)C)NC(=O)[C@H](Cc1ccc(O)cc1)NC(=O)[C@H](CO)NC(=O)[C@H](CO)NC(=O)[C@@H](NC(=O)[C@H](CC(=O)O)NC(=O)[C@H](CO)NC(=O)[C@@H](NC(=O)[C@H](Cc1ccccc1)NC(=O)[C@@H](NC(=O)CNC(=O)[C@H](CCC(=O)O)NC(=O)C(C)(C)NC(=O)[C@@H](N)Cc1cnc[nH]1)[C@@H](C)O)[C@@H](C)O)C(C)C)C(=O)N[C@@H](C)C(=O)N[C@@H](Cc1c[nH]c2ccccc12)C(=O)N[C@@H](CC(C)C)C(=O)N[C@H](C(=O)N[C@@H](CCCNC(=N)N)C(=O)NCC(=O)N[C@@H](CCCNC(=N)N)C(=O)NCC(=O)O)C(C)C,,"human, normal hepatic function, plasma","subcutaneous, 0.5 mg single dose",3.03 µM·h
CNC(=O)c1ccc(-c2cnc3ncc(Cc4ccc5ncccc5c4)n3n2)cc1F,,"healthy human subjects, plasma","oral, 400 mg, adjusted geometric mean, alone",11500 ng·h/mL
CC(C)[C@@H](CS(=O)(=O)C(C)C)N1C(=O)[C@@](C)(CC(=O)O)C[C@H](c2cccc(Cl)c2)[C@H]1c1ccc(Cl)cc1,,"human, plasma","oral, 60 mg, old tablet fasted",2870 ng·h/mL
O=C(/C=C/c1cccc(S(=O)(=O)Nc2ccccc2)c1)NO[C@@H]1O[C@H](C(=O)O)[C@@H](O)[C@H](O)[C@H]1O,,"human mild liver dysfunction, plasma","intravenous, 400 mg/m^2, 30 min infusion, cycle 1 day -7, together with: belinostat 400 mg/m^2 iv",307000 ng·h/mL
CN(C)[C@@H](CCOc1cccc2ccccc12)c1ccccc1,,"healthy male humans, plasma","oral, 60 mg, together with: udenafil 200 mg",2620 ± 1250 ng·h/mL
CC(=O)Nc1ccc(O)cc1,,healthy human volunteers,"oral, 650 mg, day 1, without favipiravir",33300 ng·h/mL
CC(C)NC[C@@H](C(=O)N1CCN(c2ncnc3c2[C@H](C)C[C@H]3O)CC1)c1ccc(Cl)cc1,,"human, hepatic impairment Healthy (Child-Pugh), plasma","oral, 100 mg single, geometric mean",318 ng·h/mL
O=c1[nH]c(=O)c(Cc2cccc(C(F)(F)F)c2)c([C@H]2CC[C@H](c3ccccc3)CC2)[nH]1,,"human, fasted, plasma","oral, 100 mg single dose, geometric mean",1190 ng·h/mL
C=CC(=O)Nc1cc(Nc2ncc(C(=O)OC(C)C)c(-c3cn(C)c4ccccc34)n2)c(OC)cc1N(C)CCN(C)C,,"human, fasted","oral, 80 mg single dose, geometric mean",257 ng·h/mL
C[C@@H](Oc1cc(-c2cnn(C3CCNCC3)c2)cnc1N)c1c(Cl)ccc(F)c1Cl,,"healthy human, plasma","oral, 250 mg single fasted, arithmetic mean",2620 ± 1090 ng·h/mL
Cl.NCCc1c[nH]c(=S)n1[C@H]1COc2c(F)cc(F)cc2C1,mean,"human, male, plasma","oral, 200 mg, fed, high-fat high-calorie meal",2120 ng·h/mL
COCCCCn1c(C(=O)N(CC(C)C)[C@@H]2CNC[C@H](C(=O)N3CCOCC3)C2)nc2ccccc21,,"human, non-elderly, plasma","oral, 160 mg, multiple doses, day 1, mean",8600 ng·h/mL
CN(Cc1nc2c(N)nc(N)nc2[nH]c1=O)c1ccc(C(=O)N[C@@H](CCC(=O)O)C(=O)O)cc1,,"human, plasma","oral, 20 mg methotrexate, day 1, alone, arithmetic mean",1980 ng·h/mL
Cn1cnc2c(F)c(Nc3ccc(Br)cc3Cl)c(C(=O)NOCCO)cc21,,"human cancer patients, plasma","oral, 75 mg, cycle 1 day 1",5200 ng·h/mL
C=C(C)[C@@H]1CC[C@]2(NCCN3CCS(=O)(=O)CC3)CC[C@]3(C)[C@H](CC[C@@H]4[C@@]5(C)CC=C(C6=CC[C@@](CF)(C(=O)O)CC6)C(C)(C)[C@@H]5CC[C@]43C)[C@@H]12,,"healthy human volunteers, plasma","oral, 200 mg, tablet, moderate-fat state, geometric mean",41000 ng·h/mL
CCn1c(=O)c2c(nc(/C=C/c3ccc(OC)c(OC)c3)n2C)n(CC)c1=O,,"healthy human, plasma","oral, 40 mg single dose, arithmetic mean, together with: rifampin 600 mg/day steady state",2100 ng·h/mL
CO[C@H]1C[C@@H]2CC[C@@H](C)[C@@](O)(O2)C(=O)C(=O)N2CCCC[C@H]2C(=O)O[C@H]([C@H](C)C[C@@H]2CC[C@@H](O)[C@H](OC)C2)CC(=O)[C@H](C)/C=C(\C)[C@@H](O)[C@@H](OC)C(=O)[C@H](C)C[C@H](C)/C=C/C=C/C=C/1C,,"human, whole blood","oral, 15 mg, without grapefruit juice",858 ng·h/mL
Cc1nc2cccc(N)c2c(=O)n1C1CCC(=O)NC1=O (stereo not shown),,"healthy adult human, plasma","oral, 3 mg, geometric mean, together with: rifampin 600 mg once daily",460 ng·h/mL
O=C(/C=C/c1cccc(S(=O)(=O)Nc2ccccc2)c1)NO,,"human severe liver dysfunction, plasma","intravenous, 400 mg/m^2, 30 min infusion, cycle 1 day -7",16900 ng·h/mL
CCc1nc(C(N)=O)c(Nc2ccc(N3CCC(N4CCN(C)CC4)CC3)c(OC)c2)nc1NC1CCOCC1,,"human, mild hepatic impairment, plasma","oral, 10 mg, single dose, fasted, geometric LS mean",433 ng·h/mL
CCCc1nn(C)c2c(=O)[nH]c(-c3cc(S(=O)(=O)N4CCN(C)CC4)ccc3OCC)nc12,,"human, male, plasma","oral, 50 mg, day 8, together with: sacubitril/valsartan 400 mg daily",629 ± 303 ng·h/mL
CNC(=O)c1c(C)oc2cc(Oc3ncnc4cc(OC)c(OC)cc34)ccc12,,"human, plasma","oral, 5 mg, fed, high-fat meal",5290 ng·h/mL
